{"data": "Measurements pooled from the literature", "note": "Lines come from different studies, so protocols differ. ± marks the error that the study gave.", "UniProt P27338, sequence (whole entry, looked up)": "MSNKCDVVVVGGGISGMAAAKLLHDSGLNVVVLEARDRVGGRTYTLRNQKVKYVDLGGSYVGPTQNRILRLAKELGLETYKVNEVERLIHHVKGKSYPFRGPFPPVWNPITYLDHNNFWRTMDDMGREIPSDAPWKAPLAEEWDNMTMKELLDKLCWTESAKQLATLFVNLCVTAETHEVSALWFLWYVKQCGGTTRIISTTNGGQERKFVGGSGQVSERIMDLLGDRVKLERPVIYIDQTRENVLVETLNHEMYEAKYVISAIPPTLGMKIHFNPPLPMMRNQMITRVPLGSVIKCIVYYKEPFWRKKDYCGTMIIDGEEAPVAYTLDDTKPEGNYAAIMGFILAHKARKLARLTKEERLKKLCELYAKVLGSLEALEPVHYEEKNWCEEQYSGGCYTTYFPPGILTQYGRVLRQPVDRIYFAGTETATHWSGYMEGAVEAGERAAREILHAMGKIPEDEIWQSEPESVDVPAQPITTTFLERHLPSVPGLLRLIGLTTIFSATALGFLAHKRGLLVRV", "UniProt P31424, sequence (whole entry, looked up)": "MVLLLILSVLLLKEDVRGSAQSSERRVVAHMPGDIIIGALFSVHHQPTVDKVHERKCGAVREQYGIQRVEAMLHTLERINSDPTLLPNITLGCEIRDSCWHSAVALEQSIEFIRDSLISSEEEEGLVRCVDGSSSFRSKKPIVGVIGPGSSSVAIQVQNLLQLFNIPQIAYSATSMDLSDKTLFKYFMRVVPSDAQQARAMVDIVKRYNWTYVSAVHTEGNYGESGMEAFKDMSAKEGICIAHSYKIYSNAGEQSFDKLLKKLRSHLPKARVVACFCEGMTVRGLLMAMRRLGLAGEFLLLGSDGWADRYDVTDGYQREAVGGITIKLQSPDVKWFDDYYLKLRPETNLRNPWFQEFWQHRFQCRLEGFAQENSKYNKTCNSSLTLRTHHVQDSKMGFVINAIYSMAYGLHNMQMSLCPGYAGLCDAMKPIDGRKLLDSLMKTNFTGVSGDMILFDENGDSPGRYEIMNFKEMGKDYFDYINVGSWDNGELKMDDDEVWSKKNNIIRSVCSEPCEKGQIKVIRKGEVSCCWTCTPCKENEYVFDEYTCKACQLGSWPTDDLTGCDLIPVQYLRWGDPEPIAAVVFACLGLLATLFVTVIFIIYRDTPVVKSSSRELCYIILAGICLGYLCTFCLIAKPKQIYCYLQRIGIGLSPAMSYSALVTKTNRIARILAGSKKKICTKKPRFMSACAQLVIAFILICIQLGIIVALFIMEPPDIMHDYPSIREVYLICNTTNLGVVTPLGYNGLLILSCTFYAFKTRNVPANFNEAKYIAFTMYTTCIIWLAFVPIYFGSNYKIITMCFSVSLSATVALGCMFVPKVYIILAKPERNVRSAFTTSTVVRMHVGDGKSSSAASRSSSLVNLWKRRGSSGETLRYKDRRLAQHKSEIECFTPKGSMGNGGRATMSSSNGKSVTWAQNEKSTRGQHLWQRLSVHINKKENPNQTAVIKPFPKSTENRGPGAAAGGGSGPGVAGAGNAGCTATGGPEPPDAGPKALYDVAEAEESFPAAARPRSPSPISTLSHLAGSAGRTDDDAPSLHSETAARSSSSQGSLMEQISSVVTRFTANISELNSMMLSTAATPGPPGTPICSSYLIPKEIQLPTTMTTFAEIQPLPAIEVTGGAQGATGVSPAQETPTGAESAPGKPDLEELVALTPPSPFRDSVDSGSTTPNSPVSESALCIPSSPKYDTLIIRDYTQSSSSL", "UniProt Q9H3R0, sequence (whole entry, looked up)": "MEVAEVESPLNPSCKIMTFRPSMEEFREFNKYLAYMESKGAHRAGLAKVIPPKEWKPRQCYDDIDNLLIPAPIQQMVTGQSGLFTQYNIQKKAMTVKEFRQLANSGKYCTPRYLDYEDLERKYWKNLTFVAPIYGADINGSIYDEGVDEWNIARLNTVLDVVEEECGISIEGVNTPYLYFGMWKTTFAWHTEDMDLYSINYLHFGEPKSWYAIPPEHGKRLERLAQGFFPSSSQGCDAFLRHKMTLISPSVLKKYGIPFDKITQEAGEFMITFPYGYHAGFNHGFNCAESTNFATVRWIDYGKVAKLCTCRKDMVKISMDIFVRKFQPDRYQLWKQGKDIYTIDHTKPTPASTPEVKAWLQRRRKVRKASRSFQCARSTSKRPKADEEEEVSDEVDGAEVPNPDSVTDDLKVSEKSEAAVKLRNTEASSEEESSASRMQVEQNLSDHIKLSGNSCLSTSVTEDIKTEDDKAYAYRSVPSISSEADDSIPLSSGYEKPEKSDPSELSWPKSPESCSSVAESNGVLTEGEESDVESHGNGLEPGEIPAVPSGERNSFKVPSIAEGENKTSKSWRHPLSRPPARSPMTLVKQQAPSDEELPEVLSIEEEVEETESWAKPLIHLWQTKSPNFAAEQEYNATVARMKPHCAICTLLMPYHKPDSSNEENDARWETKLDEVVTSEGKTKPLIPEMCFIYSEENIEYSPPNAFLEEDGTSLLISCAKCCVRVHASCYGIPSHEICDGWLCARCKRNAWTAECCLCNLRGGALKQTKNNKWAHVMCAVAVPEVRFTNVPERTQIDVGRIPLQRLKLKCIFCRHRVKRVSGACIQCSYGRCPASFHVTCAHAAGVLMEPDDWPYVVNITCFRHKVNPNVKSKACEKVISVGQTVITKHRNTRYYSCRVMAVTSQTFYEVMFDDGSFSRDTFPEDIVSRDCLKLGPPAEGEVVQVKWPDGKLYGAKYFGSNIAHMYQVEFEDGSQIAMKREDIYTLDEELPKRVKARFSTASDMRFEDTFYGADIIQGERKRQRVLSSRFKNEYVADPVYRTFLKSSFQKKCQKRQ", "UniProt Q91X56, sequence (whole entry, looked up)": "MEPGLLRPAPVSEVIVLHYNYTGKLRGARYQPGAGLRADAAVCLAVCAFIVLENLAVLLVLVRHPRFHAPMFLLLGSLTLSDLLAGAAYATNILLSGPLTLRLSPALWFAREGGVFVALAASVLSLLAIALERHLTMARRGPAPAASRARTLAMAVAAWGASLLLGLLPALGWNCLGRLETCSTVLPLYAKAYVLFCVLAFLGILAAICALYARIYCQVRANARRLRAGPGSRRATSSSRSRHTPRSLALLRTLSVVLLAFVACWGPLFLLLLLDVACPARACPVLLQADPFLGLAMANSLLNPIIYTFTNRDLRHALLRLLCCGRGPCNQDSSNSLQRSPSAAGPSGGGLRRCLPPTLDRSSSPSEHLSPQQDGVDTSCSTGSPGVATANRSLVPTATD"}
{"SMILES": "N#Cc1cnc(Nc2nc3ccccc3o2)nc1-c1cccnc1", "tested on": "Metabotropic glutamate receptor 5 (Grm5, Rattus norvegicus, UniProt P31424)", "assay": "calcium mobilization, negative allosteric modulator, cell-based", "setting": "added: glutamate at EC80", "scale": "reference: maximal glutamate response", "measurement": "maximum response", "value": "2.1 ± 0.7%"}
{"SMILES": "CC(C)(C)[C@H]1CC[C@H](Oc2cc([18F])c3ccccc3c2CN2CCC(C(=O)O)CC2)CC1", "tested on": "Sphingosine 1-phosphate receptor 5 (S1pr5, Mus musculus, UniProt Q91X56)", "assay": "saturation autoradiography", "test system": "C57BL/6 mouse brain sections", "measurement": "Bmax", "value": "427 ± 38.5 fmol/mg"}
{"SMILES": "CC[C@H](C)[C@H](NC(=O)[C@H](CCCCN)NC(=O)[C@H](CCC(N)=O)NC(=O)[C@H](Cc1ccccc1)NC(=O)[C@@H](NC(=O)[C@H](CCCCN)NC(=O)[C@H](CCCCN)NC(=O)[C@H](CC(C)C)NC(=O)[C@H](C)NC(=O)[C@H](CC(N)=O)NC(=O)[C@@H](N)CC(C)C)C(C)C)C(=O)N[C@@H](Cc1c[nH]cn1)C(N)=O", "tested on": "Gram-positive and Gram-negative bacteria", "measurement": "geometric mean MIC", "value": "7.34 µM"}
{"SMILES": "CC(C)c1ccc(N(C)c2ccc3c(c2)OCC[C@H]3CNc2cnccc2C(=O)O)cc1", "tested on": "Lysine-specific demethylase 4C (KDM4C, Homo sapiens, UniProt Q9H3R0)", "assay": "H3K9me3 demethylation, inhibitor, TR-FRET", "setting": "enzyme preincubation", "measurement": "kon", "value": "4500 ± 167 M⁻¹ s⁻¹"}
{"SMILES": "NC1CC1c1ccc(NC(=O)Cc2ccccc2)cc1 (centres unmarked)", "tested on": "Amine oxidase [flavin-containing] B (MAOB, Homo sapiens, UniProt P27338)", "assay": "enzyme activity, inhibitor, HRP-coupled", "setting": "100 µM, added: benzylamine substrate", "measurement": "inhibition", "value": "33%"}
{"SMILES": "CC[C@H](C)[C@H](NC(=O)[C@H](C)NC(=O)[C@H](CCC(=O)O)NC(=O)[C@H](Cc1c[nH]cn1)NC(=O)[C@@H](NC(=O)[C@H](CCCCN)NC(=O)[C@H](CCC(N)=O)NC(=O)[C@H](Cc1ccccc1)NC(=O)[C@@H](NC(=O)[C@H](CCCCN)NC(=O)[C@H](CCCCN)NC(=O)[C@H](CC(C)C)NC(=O)[C@H](C)NC(=O)[C@H](CC(N)=O)NC(=O)[C@@H](N)CC(C)C)C(C)C)[C@@H](C)CC)C(=O)N[C@@H](CCCCN)C(N)=O", "tested on": "Acinetobacter baumannii", "assay": "broth microdilution", "test system": "ATCC 19606", "setting": "18 h, 37 °C", "measurement": "MIC", "value": "4 µM"}
{"SMILES": "COc1ccc(CC(NC(=O)OCc2ccccc2)C(=O)Nc2ccc(C3CC3N)cc2)cc1 (centres unmarked)", "tested on": "NB-4 APL cells", "measurement": "IC50", "value": "6.2 ± 0.5 µM"}
{"SMILES": "CC[C@H](C)[C@H](NC(=O)[C@H](CC(C)C)NC(=O)[C@H](CCCCN)NC(=O)[C@@H](NC(=O)[C@H](C)NC(=O)[C@H](CCC(=O)O)NC(=O)[C@H](Cc1c[nH]cn1)NC(=O)[C@@H](NC(=O)[C@H](CCCCN)NC(=O)[C@H](CCC(N)=O)NC(=O)[C@H](Cc1ccccc1)NC(=O)[C@@H](NC(=O)[C@H](CCCCN)NC(=O)[C@H](CCCCN)NC(=O)[C@H](CC(C)C)NC(=O)[C@H](C)NC(=O)[C@H](CC(N)=O)NC(=O)[C@@H](N)CC(C)C)C(C)C)[C@@H](C)CC)[C@@H](C)CC)C(N)=O", "tested on": "Staphylococcus aureus", "assay": "broth microdilution", "test system": "ATCC 25923", "setting": "18 h, 37 °C", "measurement": "MIC", "value": "4 µM"}
